Experimental data pooled from the literature.
Numbers after ± are the reported error.
gag-pol integrase: Gag-Pol polyprotein, integrase (gag-pol, Human immunodeficiency virus 1, UniProt P12497)
BCHE: Cholinesterase (BCHE, Homo sapiens, UniProt P06276)
Chain of UniProt P06276 (whole entry, looked up): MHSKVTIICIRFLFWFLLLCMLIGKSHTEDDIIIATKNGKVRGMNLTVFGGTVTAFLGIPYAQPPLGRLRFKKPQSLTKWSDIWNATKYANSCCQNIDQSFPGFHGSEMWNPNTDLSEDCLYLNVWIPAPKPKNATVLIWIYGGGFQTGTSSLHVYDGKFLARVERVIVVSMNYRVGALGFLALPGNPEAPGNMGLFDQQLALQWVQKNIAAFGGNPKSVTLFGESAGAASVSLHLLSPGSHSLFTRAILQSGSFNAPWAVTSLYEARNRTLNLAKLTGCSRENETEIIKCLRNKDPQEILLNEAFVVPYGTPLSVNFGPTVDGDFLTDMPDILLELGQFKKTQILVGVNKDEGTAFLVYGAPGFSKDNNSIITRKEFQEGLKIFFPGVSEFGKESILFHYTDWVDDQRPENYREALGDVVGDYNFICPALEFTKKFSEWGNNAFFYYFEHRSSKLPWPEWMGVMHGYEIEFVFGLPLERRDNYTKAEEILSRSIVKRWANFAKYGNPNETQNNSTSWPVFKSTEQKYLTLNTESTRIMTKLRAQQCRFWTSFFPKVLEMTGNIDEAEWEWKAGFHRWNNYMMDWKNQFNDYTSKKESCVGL
Chain of UniProt P43681 (whole entry, looked up): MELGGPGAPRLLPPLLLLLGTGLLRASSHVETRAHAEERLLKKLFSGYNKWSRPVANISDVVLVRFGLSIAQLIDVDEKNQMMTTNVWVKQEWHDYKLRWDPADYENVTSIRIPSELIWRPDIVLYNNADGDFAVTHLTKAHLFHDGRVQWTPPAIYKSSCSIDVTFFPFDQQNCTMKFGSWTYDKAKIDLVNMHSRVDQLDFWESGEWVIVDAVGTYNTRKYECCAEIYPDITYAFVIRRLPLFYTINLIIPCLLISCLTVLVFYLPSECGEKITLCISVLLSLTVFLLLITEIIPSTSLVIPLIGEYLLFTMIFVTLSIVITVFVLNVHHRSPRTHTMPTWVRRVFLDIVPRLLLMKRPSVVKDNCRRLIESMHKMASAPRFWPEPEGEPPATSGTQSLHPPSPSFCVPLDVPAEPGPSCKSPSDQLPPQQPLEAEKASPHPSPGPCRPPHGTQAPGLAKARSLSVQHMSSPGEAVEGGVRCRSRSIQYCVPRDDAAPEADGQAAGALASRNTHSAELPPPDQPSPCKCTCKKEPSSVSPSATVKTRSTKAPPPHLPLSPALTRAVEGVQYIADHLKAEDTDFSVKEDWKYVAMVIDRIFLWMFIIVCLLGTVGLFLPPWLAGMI
Chain of UniProt P35462 (whole entry, looked up): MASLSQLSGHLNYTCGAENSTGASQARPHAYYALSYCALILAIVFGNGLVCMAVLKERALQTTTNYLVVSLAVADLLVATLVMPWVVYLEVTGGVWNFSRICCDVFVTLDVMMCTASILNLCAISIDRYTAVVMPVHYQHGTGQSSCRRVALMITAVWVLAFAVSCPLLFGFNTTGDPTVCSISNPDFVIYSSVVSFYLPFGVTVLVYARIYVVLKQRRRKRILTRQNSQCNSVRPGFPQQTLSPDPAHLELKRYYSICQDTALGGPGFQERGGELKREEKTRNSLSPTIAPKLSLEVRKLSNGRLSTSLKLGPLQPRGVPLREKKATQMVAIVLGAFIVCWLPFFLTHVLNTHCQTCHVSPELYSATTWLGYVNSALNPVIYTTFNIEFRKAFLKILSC
Chain of UniProt P51813 (whole entry, looked up): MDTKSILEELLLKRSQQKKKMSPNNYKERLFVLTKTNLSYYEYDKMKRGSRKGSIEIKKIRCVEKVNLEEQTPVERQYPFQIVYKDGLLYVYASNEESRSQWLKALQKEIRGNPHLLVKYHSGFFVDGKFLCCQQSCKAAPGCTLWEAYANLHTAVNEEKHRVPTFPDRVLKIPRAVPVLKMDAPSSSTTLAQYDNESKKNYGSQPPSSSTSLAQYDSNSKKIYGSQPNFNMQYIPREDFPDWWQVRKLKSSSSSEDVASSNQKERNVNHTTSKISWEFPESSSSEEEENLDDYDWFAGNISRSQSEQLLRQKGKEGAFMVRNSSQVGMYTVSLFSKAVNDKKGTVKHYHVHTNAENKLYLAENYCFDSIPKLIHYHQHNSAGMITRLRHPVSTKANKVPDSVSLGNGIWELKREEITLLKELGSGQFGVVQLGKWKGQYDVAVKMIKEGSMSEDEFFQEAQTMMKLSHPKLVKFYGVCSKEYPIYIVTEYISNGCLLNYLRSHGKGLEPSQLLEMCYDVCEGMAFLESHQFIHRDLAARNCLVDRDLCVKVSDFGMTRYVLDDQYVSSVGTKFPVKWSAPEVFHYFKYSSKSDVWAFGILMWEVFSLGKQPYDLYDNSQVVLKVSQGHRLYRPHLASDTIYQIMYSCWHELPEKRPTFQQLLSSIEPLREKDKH
Chain of UniProt Q8NEW0 (whole entry, looked up): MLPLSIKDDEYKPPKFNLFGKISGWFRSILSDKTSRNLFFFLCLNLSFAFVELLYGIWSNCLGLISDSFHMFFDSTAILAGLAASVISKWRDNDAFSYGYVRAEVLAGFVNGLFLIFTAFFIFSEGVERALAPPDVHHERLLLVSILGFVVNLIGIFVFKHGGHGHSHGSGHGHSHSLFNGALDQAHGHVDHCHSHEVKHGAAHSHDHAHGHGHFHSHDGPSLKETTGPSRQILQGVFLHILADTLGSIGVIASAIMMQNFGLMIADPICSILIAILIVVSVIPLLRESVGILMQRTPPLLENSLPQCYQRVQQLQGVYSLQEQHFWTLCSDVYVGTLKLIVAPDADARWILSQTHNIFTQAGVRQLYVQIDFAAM
Chain of UniProt P17787 (whole entry, looked up): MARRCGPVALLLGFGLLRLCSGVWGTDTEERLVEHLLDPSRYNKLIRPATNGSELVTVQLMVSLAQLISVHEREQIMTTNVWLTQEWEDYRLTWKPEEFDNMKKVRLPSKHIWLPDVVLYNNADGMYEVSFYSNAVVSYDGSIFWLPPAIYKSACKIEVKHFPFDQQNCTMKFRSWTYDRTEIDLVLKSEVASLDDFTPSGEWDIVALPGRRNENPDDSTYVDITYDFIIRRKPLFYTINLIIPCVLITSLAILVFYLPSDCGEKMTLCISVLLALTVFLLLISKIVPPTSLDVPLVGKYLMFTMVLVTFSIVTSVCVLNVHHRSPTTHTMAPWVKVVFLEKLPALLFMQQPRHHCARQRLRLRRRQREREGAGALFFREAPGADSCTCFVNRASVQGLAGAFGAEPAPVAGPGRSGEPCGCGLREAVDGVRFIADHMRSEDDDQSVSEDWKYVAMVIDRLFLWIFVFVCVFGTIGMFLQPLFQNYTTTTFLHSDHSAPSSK

Compound | tested on | test | test system | conditions | measurement | result
Cc1cc(C)nc(N/N=C/c2cccc(O)c2)n1 | Gag-Pol polyprotein, integrase with LEDGF/p75 (gag-pol, Human immunodeficiency virus 1, UniProt P12497) | LEDGF/p75-integrase interaction, inhibitor, AlphaScreen | – | – | IC50 | > 50 µM
C[C@H](NC(=O)[C@@H](NC(=O)[C@H](CO)NC(=O)[C@H](Cc1c[nH]cn1)NC(=O)[C@@H]1CCCN1C(=O)[C@H](CC(=O)O)NC(=O)[C@H](CCC(N)=O)NC(=O)[C@H](Cc1ccc(OP(=O)(O)O)cc1)NC(=O)[C@H](Cc1c[nH]cn1)NC(=O)[C@@H]1CCCN1C(=O)[C@H](CC(=O)O)NC(=O)[C@H](CCCNC(=N)N)NC(=O)[C@H](CO)NC(=O)[C@@H]1CCCN1C(=O)[C@H](C)NC(=O)[C@@H]1CCCN1C(=O)[C@H](CC(N)=O)NC(=O)c1ccc2c(c1)C(=O)OC21c2ccc(N(C)C)cc2Oc2cc(N(C)C)ccc21)[C@@H](C)O)C(=O)N[C@@H](CC(=O)O)C(=O)O | Cytoplasmic tyrosine-protein kinase BMX, SH2 domain (BMX, Homo sapiens, UniProt P51813) | binding | – | – | Kd | 1.07 µM
COc1cc(Nc2ncc(F)c(Nc3ccc4c(n3)NC(=O)C(C)(C)O4)n2)cc(OC)c1OC | Voltage-dependent N-type calcium channel subunit alpha-1B (Homo sapiens, UniProt Q00975) | – | – | – | IC50 | > 10 µM
Cc1[nH]c(C)c(S(=O)(=O)Nc2ccc(S(F)(F)(F)(F)F)cc2)c1C(=O)N1CCC(F)(F)C1 | D(3) dopamine receptor (DRD3, Homo sapiens, UniProt P35462) | allosteric modulator, radioligand binding | – | together with: pramipexole | Kb | 4.6 µM
COc1ccccc1N1CCN(/N=C/c2ccc(Cl)c([N+](=O)[O-])c2)CC1 | gag-pol integrase | strand transfer activity, inhibitor | – | wild-type integrase | IC50 | > 100 µM
CO[C@H]1C[C@@H]2CC[C@@H](C)[C@@](O)(O2)C(=O)C(=O)N2CCCC[C@H]2C(=O)O[C@H]([C@H](C)C[C@@H]2CC[C@@H](OC(=O)NCCOCCOCCOCCOCCOCCOCCOCCOCCC(=O)N3CCc4cc(Cn5nc(-c6ccc7oc(N)nc7c6)c6c(N)ncnc65)ccc4C3)[C@H](OC)C2)C[C@@H](O)[C@H](C)/C=C(\C)[C@@H](O)[C@@H](OC)C(=O)[C@H](C)C[C@H](C)/C=C/C=C/C=C/1C | – | – | patients with advanced solid tumours | intravenous, 12 mg weekly, grade 3 or higher | decreased appetite leading to dose reduction | 0%
O=C(N/N=C/c1ccc(O)cc1O)c1ccncc1 | gag-pol integrase | strand transfer activity, inhibitor | – | wild-type integrase | IC50 | > 100 µM
C[C@H]1CN(c2n[nH]c3nc(N[C@H]4CC[C@H](NS(=O)(=O)CCC(F)(F)F)CC4)ncc23)CCO1 | Zinc transporter 7 (Homo sapiens, UniProt Q8NEW0) | biochemical | – | – | IC50 | ≥ 20 µM
Cc1ccc(S(=O)(=O)Oc2ccc3c(c2)Oc2nc4c(c(N)c2C3c2ccc(Cl)c(Cl)c2)CCCC4)cc1 (stereo not shown) | BCHE | enzyme activity, inhibitor | – | – | IC50 | 0.184 µM
COc1ccc2c(c1)CN(C(=O)CCN1CCC(Cc3ccccc3)CC1)CCS2 | BCHE | inhibitor, fluorometric | – | – | IC50 | 6.22 ± 0.79 µM
COc1ncccc1-c1cnn2ccc(N3CCN(C(=O)OC(C)C)CC3)nc12 | Neuronal acetylcholine receptor; alpha4/beta2 (Homo sapiens, UniProt P17787+P43681) | liability screen | – | – | IC50 | > 30 µM
COc1cc2c(Oc3ccc4[nH]c(C)cc4c3F)ccnc2cc1OCC1(N)CC1 | – | – | paediatric recurrent refractory sarcoma | 8 mg | grade 1 or 2 Tinnitus | 0%
CCCCCCC[N+](CC)(CC)CCCCc1ccc(Cl)cc1 | BCHE | inhibitor, fluorometric | – | – | IC50 | 15.7 ± 7.41 µM
